Published values from different studies.
A part holds a random share of what one study measured.

Sample 1
Target: PABPC1L2, full length, GST fusion (mouse, UniProt A0ABA7IW68)
Technique: RNAcompete
Molecule type: RNA
Sample: in vitro
Tested at: 20 nM
Notes: 7-mer, probes averaged, single round
Reference: mean of 7-mers
Direction: higher = stronger binding
Measurement: 7-mer Z-score
Construct (chain): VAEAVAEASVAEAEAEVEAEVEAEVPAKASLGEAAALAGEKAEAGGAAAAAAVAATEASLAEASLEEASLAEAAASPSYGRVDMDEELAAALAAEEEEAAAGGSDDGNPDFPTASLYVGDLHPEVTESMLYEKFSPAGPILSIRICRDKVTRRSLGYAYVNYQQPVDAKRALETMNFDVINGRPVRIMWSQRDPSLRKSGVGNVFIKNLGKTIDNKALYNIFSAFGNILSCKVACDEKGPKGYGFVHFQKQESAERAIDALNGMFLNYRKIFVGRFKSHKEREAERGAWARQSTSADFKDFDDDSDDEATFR
GCACGCU: -0.184
AACCCCC: -0.432
GCAGUUG: -0.173
GCACUAG: -0.139
GGAGGCG: 0.229
UGGGAAU: 0.095
CAAGAUC: -0.0591
AAAUCGA: 1.48
UGCCUUG: -0.266
AUAAAGU: 2.66
CCAAUAA: 0.376
CAUCAGC: -0.222
UCCACCG: -0.313
CCCCCAA: -0.354
AGUACUC: -0.112
AGCACAG: -0.0645
AAUCGAU: 0.267

Sample 2
Target: Sal-like protein 4, full length isoform B (SALL4, Homo sapiens, UniProt Q9UJQ4-2, residues 1-616)
Technique: universal PBM
Molecule type: double-stranded DNA, one strand shown
Sample: in vitro
Tested at: not given
Notes: 8-mer, flanks averaged, mean of replicates
Direction: higher = stronger binding
Measurement: E-score
CGCCTCAA: -0.0541
CTCCCTGC: -0.246
ATGTGCCA: 0.0398
AGTATTCG: 0.119
GCGCACAA: -0.065
CTTAGAAA: 0.097
ACAACGAG: 0.128
ACTCTCAG: -0.0364
CCGGTTTC: -0.297
AAACAAGC: -0.0161
ACTCTCGC: -0.158
CTTGGGCC: -0.324
ATCCGCTC: -0.302
ATAGCAAT: 0.294
GACAGCCA: -0.124
ACGAGCAC: -0.148
AGGGAGGA: -0.17
CGGAGCTA: -0.154

Sample 3
Target: Histone acetyltransferase KAT6A, winged helix 1, GST fusion (KAT6A, Homo sapiens, UniProt Q92794, residues 1-85)
Technique: protein binding microarray
Molecule type: double-stranded DNA, one strand shown
Sample: in vitro
Tested at: not given
Notes: 8-mer, flanks averaged, mean of 2 arrays, mostly near background
Reference: not given
Direction: higher = stronger binding
Measurement: E-score
Target sequence (chain): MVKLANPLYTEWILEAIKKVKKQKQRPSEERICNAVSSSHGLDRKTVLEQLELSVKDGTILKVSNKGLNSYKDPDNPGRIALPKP
CTCCTCAC: -0.0548
ACACTGCA: -0.16
ATCCACCG: 0.0943
AGACCCAG: -0.205
CCCTTGCA: -0.118
GTGGCGTA: 0.0799
GACCGATA: 0.073
AGTTACTA: -0.175
ACAGCGAC: 0.126
ATCCGGCG: 0.374
CTAACCAC: -0.155
AGCGGACC: 0.208
CACTCGAC: -0.0322
GCATAAGC: 0.00692
GGAACTCA: -0.113
CCACATAA: 0.0152
AGACGCAC: 0.15
GGCGCTAA: 0.332
TCCGCACA: 0.182
ACCTTCTA: -0.197
AGACCGAC: 0.181
TCAACTGA: -0.227

Sample 4
Target: RNA binding protein fox-1 homolog 2, RRM domain, GST-SBP tag (RBFOX2, Homo sapiens, UniProt O43251-10, residues 100-194)
Technique: RNA Bind-n-Seq
Molecule type: RNA
Sample: in vitro
Tested at: 365 nM
Notes: natural RNA segment, single round, ends assumed
Reference: no-protein control
Direction: higher = stronger binding
Measurement: RBNS enrichment (R)
Target sequence (chain): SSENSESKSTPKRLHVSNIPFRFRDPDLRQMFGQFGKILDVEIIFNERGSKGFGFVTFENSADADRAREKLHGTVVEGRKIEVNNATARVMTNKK
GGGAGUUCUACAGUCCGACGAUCGCCGGAUGCCCCACACACCGCCAGUGUCAUACCAAAGAGCUGAGCUGCUUCGGGGCCAUGCAGCCCUCCUGCCAGCCCCCUGCCCUUUUCUUGCCCUGUCUCUGAACCUUUGGAAUUCUCGGGUGCCAA: 0.315
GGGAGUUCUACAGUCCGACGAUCUUAUUUCAAGACAAUGCCUUAUAUCACAUUGGAGGAGUUUGAAUACUUAACAGGUUCUUUGUCAACAUGGAGACAUUAACAUGGUAGCUCACUGACUGGGUCUCUUCAGCUGGAAUUCUCGGGUGCCAA: 0.359
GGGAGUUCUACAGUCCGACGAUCGCAAUCUUACAAUUUGACCAGAGAAUAUUUUUUAUUAGUACUAGUUGUUAUUACCUAUAAUUGAGAAUAAGAAAAAUAUGGAAAGUUCCCUCAAAACAGAGAGAUGCUCUUGGAAUUCUCGGGUGCCAA: 0.484
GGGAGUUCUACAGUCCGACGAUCUAUACUCCUGUGUAAUAAGACUGAUGCAGAGCCCUGAAUUUCAUUCUGUCUAUGAAUACCUUUUUGAACAAAGAAAAUUUUAUUGAUUUAAAAAGCUUUUAUAUGAGACAUGGAAUUCUCGGGUGCCAA: 0.645
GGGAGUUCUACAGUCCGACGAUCCUCUGCAGUUCAUCUCAUUUCAAAUGUUUAUGGAAGAAGCACUUCAUUGAAAGUAGUGCUGUAAAUAUUCUGCCAUAGGAAUACUGUCUACAUGCUUUCUCAUUCAAGAAUGGAAUUCUCGGGUGCCAA: 0.33
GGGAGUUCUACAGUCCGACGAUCAUUUUUCAUUCUAGGGACACUAAAAAAGAAAUCUGGGGAACAUCCGGGCUUUUGUAUAUUACCUGCUGAUCUUGUACACUUAAUCUGUUUACUGUUGUUCACAGAUGAAAUGGAAUUCUCGGGUGCCAA: 0.386
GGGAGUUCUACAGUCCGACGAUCUUCAGGGAACCGUGAGGAUCUGGCAACAUGGCUCUGCUUGCAAUAUCCACUGAGCACUGUAAUACAUUUGACAGGAUGGCUGCAUGAAACUGUCCAGCAUUUUUCUGUCGUGGAAUUCUCGGGUGCCAA: 1.47
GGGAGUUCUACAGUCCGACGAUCGCCUGGUGUGCUCUGGGAUGUGCAAGGUGGAGCAGGCCUGUCAGUCAGCCUGCUGCUGCAUCUGUUCUCAGCUUCUUGGUUGGCUGGCUGAGUGGAGCACCCACCCAAACUGGAAUUCUCGGGUGCCAA: 0.538
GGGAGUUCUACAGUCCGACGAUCAAAUGGAAUAUUUGCUGAAUGAAUUAAGCAUAGAAAAUGUCAACCCAUCAGAAUUAUAUUUAUACAUAUUGGUGGAUAAGUUCUUGUCUUCCCACAUCAGAGAAUUUUUUUGGAAUUCUCGGGUGCCAA: 0.352
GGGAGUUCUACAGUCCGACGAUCUGCAAGACCCCGGGUCCUUGCAGCAGAGCUUCUCAUGGGUGGCUUGCUGGGGCCGGGCCGAGGACUCCUCAGAGGCGUUUCCUGCAGAGCCAUUAUUUUGACGCCUUUUUUGGAAUUCUCGGGUGCCAA: 0.472
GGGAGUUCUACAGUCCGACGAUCAUCUCUUUUUUAAAAAAGGGGGUUUGACUAUUGUUGGCAUUCUUGUGGUUCCUUUAAAUGCCCUUACCUCUCCCAAGAGGUUGUUUUGUUUUGUUUUCCUCCCUUUUCUCUGGAAUUCUCGGGUGCCAA: 0.773
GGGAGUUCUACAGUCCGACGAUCCCGAGGGUCCGGCAGGGCACAGGGACAGCCAGGUGGCACCGAGUCACAGGCUGUGGUCCGGUGGCUGAGCAUGCUGUUGUCUUGUCCUUGAUUUUAUUUUCUUUUGUUCUUGGAAUUCUCGGGUGCCAA: 4.31
